Experimental data pooled from the literature.
Each numbered part is a random draw from the data of one study; scales do not carry over between parts. Positions count from the first letter of the parent shown.

Study 1 — method: protein-binding microarray; molecule type: double-stranded DNA, one strand shown; sample: in vitro; tested at: 940 nM top; setting: 60-bp whole probe; added: salmon DNA 0.4 mg/ml; baseline: random background probes; reading: higher = stronger binding; shared flanks, not repeated: GCCTAGCAC … GTCTTGATTCGCTTGACGCTGCTG
Target: Interferon regulatory factor 5, full length, phosphomimetic (IRF5, Homo sapiens, UniProt Q13568-2, residues 1-514, S451D/S453D/S456D/S462D)
Strand	fitted relative affinity [z-score]
TTAGATATCAGACTGGATTAGTGCTAG	-0.353
GACGGTATCGGTTTCGGGGCGTGCTAG	10
GCCCCACCCGCTCTGGCCCCGTGCTAG	-0.32
TTAGGTCGCGGACTGGGTTAGTGCTAG	-0.397
GACGGTTCCGGTTTCGGGCCGTGCTAG	4.96
GACGAACTGCGGTATCGAGACGTGCTA	0.756
TTAGCTATCGGGACTGGATTAGTGCTA	0.0186
TTAGGCCTGCTTCTCCTTTAGTGCTAG	-0.0685
TTAGAACCGAGTCTCGATTAGTGCTAG	2.98
TCATGTCCCCCTTTTATACTGTGCTAG	0.435
TCAGTTTTTGCTTTCCTACTGTGCTAG	1.94
TTAGAACTGCTACTGCTTTAGTGCTAG	-0.294
TTAGATTTCAGTCTGGATTAGTGCTAG	0.362
TCATGTTCCCTCATCAGACTGTGCTAG	0.823
GACGGTATCCTTCTCCTGCCGTGCTAG	0.515
GACGATTTCTGGACTGGAGACGTGCTA	0.196
CCCGATATGCGGTAAGGGCGCGTGCTA	-0.384
TTAGGTCTCCTCCTCCTTTAGTGCTAG	0.376
GACGGTATCCTTTTCCAGACGTGCTAG	0.415
GACGGCCTGGGTATCGGGACGTGCTAG	0.513
TTAGGACTGGTTTTCCTTTAGTGCTAG	0.308
GACGGTCTCAGTCTCGAGACGTGCTAG	1.94
GACGCTCTCCTTCTCCTGACGTGCTAG	0.349
CCTTATTTAAGACCTATGCACGTGCTA	0.84
GACGATTTCGGGTTTCCAGACGTGCTA	0.804

Study 2 — method: DHFR PCA, deep sequencing; sample: yeast; added: (+)-ABA 2500 µM; baseline: wild-type fitted maximum; reading: higher = stronger binding
Target: ABI1, truncated, D143A, DHFR fusion (Arabidopsis thaliana)
Setting: methotrexate growth selection, single substitutions
Starting sequence: PYL1, truncated, DHFR fusion (Arabidopsis thaliana); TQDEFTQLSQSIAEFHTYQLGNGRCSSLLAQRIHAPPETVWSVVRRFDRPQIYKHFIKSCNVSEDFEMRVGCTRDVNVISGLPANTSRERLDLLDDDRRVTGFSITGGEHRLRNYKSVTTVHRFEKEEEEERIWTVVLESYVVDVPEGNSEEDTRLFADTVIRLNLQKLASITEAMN; partner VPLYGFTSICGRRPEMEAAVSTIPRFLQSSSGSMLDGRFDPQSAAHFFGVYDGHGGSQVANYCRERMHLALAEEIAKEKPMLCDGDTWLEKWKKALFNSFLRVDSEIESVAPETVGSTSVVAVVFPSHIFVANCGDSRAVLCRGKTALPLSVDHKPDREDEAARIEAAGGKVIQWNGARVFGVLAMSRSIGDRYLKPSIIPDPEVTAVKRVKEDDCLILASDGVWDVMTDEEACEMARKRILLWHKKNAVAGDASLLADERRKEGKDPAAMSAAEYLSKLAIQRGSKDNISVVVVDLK
Variant	relative binding score [%]
S80I	48.2
E131D	103
D3M	98.9
D144E	93.2
N165M	18
T173W	92.3
T106E	106
F103S	18.6
F103W	94.3
I162V	101
V78S	79.1

Study 3 — method: RNA Bind-n-Seq; molecule type: RNA; sample: in vitro; tested at: 200 nM; setting: whole 134-nt RNA, ends assumed; added: 150 mM KCl; baseline: input library; reading: higher = stronger binding
Target: Ras GTPase-activating protein-binding protein 1, full length (G3BP1, Homo sapiens, UniProt Q13283)
Chain of UniProt Q13283 (whole entry, looked up): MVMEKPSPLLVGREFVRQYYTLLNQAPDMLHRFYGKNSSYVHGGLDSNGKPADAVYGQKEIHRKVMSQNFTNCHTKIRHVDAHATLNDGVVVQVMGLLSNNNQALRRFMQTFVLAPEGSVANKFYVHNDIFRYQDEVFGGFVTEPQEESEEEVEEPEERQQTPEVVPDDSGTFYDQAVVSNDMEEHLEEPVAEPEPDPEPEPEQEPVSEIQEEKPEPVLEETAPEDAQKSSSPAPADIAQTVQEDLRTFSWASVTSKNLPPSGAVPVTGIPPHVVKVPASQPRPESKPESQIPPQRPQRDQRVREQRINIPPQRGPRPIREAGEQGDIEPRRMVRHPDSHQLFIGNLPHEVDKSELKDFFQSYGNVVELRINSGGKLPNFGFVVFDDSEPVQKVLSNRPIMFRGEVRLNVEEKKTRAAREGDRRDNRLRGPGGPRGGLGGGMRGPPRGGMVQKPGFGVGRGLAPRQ
Shared flanks, not repeated: GGGAGUUCUACAGUCCGACGAUC … UGGAAUUCUCGGGUGUCAAGG
Strand	log2 enrichment
CUCAAGUCCUGUGCUACACAUCGUAUGUACCGAAUCGGGUUGGGUUGGGUUGGAAAGUAUUAUGUUACGCCGUUCGGAUCUGCACUUCCA	0.49
CCUGUGCUACACAUCGUAUGUACCGAAUCGGGGUUUUUUUGGGGUUUGGGGUUUUUGGGGAAAGUAUUAUGUUACGCCGUUCGGAUCUGC	0.164
GUCCUGUGCUACACAUCGUAUGUACCGAAUCGGAAAAAAAGGAAAAAGGUUUUUUUGGAAAGUAUUAUGUUACGCCGUUCGGAUCUGCAC	-1.47
ACCAUGCAGGUGGGCAUCUUUGGGAAGUGGGGCAAGGGGGGGAUAGGGAGGGGGAUAACACUUUGGGAACAGGUGGUCCCAGGUCGUUUC	1.62
UCAAGUCCUGUGCUACACAUCGUAUGUACCGAAUCGGCCCGGGCCCGGGGCCCGGAAAGUAUUAUGUUACGCCGUUCGGAUCUGCACUUC	-1.09
UGGGAGGUGGAUUUUGUUUAUUUUAUUAGCUCAUUUCCAGGGGUGGGAAUUUUUUUUUAAUAUGUGUCAUGAAUAAAGUUGUUUUUGAAA	0.2
GCAGGAAGUAAAAACAAAUGGAAAUGCUUCGGAUAGUGGCAGGGGUGGGGGUUGCUAAGGAAAGGGUGGGAUGGGAGUGGGUAAAUAGUU	0.65
UAACUUUAGAGGAGGAUCUGAUGGAUAUGGCAGUGGACGUGGAUUUGGGGAUGGCUAUAAUGGGUAUUGAGGAGGACCUGGAGGUGGCAA	0.372
CCUGUGCUACACAUCGUAUGUACCGAAUCAAACCCCCCCAAACCCCCCCAAAUUUUUAAAAAAGUAUUAUGUUACGCCGUUCGGAUCUGC	0.997
UUAAUAGAUUGAACUUCAAAAAAAAAUUCUUUCUUAAUUUCUGGAUUAAAAAGUAUGCCUGUGUCUUCUAGACCUUUACCAGAAGAUGAU	-1.47
CAAGUCCUGUGCUACACAUCGUAUGUACCGAAUCGGAAAAAGGAAAAAGGAAAGGAAAGUAUUAUGUUACGCCGUUCGGAUCUGCACUUC	-1.17
CCUCAAGUCCUGUGCUACACAUCGUAUGUACCGAAUCGGGAGGGGAGGGAGGAAAGUAUUAUGUUACGCCGUUCGGAUCUGCACUUCCAG	0.875
UAACUUUAGAGGAGGAUCUGAUGGAUAUGGCAGUGGACGUGGAUUUGGGGAUGGCUAUAGUGGGUAUGGAGGAGGACCUGGAGGUGGCAA	0.472
CAAGUCCUGUGCUACACAUCGUAUGUACCGAAUCGGAAAAAGGAAAGGAAAAAGGAAAGUAUUAUGUUACGCCGUUCGGAUCUGCACUUC	-0.941

Study 4 — target: CCNB1, cyclin fold, Cln2 fusion (human); method: yeast growth competition, sequencing; sample: yeast; setting: weak parent motif; baseline: not given; reading: higher = stronger binding
Starting sequence: RBL1 docking peptide (human); GSAKRRLFGEDPP
Variant	normalised enrichment score
F8P	0.692
G1W	1.16
E10I	1.04
F8S	0.069
F8G	0.526
K4W	0.619
R5S	1.15
K4T	0.713
F8C	0.295
S2A	1.11
S2V	0.55
R5I	-0.184
P12N	0.597
D11T	1.17
S2I	-0.172
E10F	1.31
G9S	1.18
P13R	0.287
P12F	0.649
D11P	-0.916
R6L	-0.409
G1N	1.06
D11Q	0.59
R6Y	0.589
D11L	0.832
